Experimental data pooled from the literature.
Lines come from different studies, so protocols differ. Several values in a cell are separate wells, animals, samples, runs or records. Numbers after ± are the reported error.

SMILES | target or system | assay | test system | conditions | scale | endpoint | value
COc1ccc2c(c1OC)C(=O)c1c(cc(C)c(O)c1OC)C2=O | HepaRG co-cultured with HK-2 | MTT |  | 266.67 µM, 48 h | reference: untreated control | cell viability | 53.3 ± 10.9%
O=S(=O)(O)C(F)(F)C(F)(F)C(F)(F)C(F)(F)F | hTERT-RPTEC-OAT1 | LDH release | culture medium | concentration not given, 24 h, 96-well plate |  | LDH activity in medium | 4.91 mU/mL
O=C1c2ccccc2C(=O)c2ccccc21 | HepaRG co-cultured with HK-2 | MTT |  | 16.67 µM, 48 h | reference: untreated control | cell viability | 85.7 ± 2.5%
CC1=C(O)C(=O)C=C2C1=CC=C1[C@@]2(C)CC[C@@]2(C)[C@@H]3C[C@](C)(C(=O)O)CC[C@]3(C)CC[C@]12C | COS-7 |  |  | 10 µM, 24 h, 0.1% DMSO, unit not given | reference: vehicle control | apoptotic cells | 3.4 ± 2.45
C/C1=C/C(=O)O[C@@H]2C[C@@H](CC[C@H](C)/C=C\C=C\CC1)O[C@@](OCCc1ccccc1)([C@@H]1CSC(=O)N1)C2 | MCF7 | MTT |  |  |  | lowest cytotoxic concentration | > 1 µM
Cc1cn([C@H]2C[C@H](F)[C@@H](CO)O2)c(=O)[nH]c1=O | HEL | cell morphology |  |  |  | minimal cytotoxic concentration | > 250 µM
CC[C@H](C)[C@H](NC(=O)[C@H](CC(C)C)NC(=O)[C@@H](NC(=O)[C@H](CCCCN)NC(=O)[C@H](CCCNC(=N)N)NC(=O)[C@H](CCCCN)NC(=O)[C@H](CC(C)C)NC(=O)[C@H](Cc1ccc(O)cc1)NC(=O)[C@@H](NC(=O)[C@@H](NC(=O)[C@H](Cc1ccccc1)NC(=O)CN)C(C)C)C(C)C)[C@@H](C)O)C(=O)N[C@@H](CCCNC(=N)N)C(=O)N[C@@H](CC(C)C)C(=O)N[C@@H](CC(C)C)C(=O)N[C@@H](Cc1ccccc1)C(=O)N[C@H](C(=O)N[C@@H](CC(N)=O)C(=O)N[C@@H](CCCCN)C(=O)N[C@@H](CCCCN)C(=O)N[C@H](C(=O)N[C@H](C(=O)N[C@H](C(=O)N[C@@H](CCC(=O)O)C(=O)N[C@@H](CCCCN)C(=O)N[C@@H](CC(C)C)C(=O)N[C@@H](CCCNC(=N)N)C(=O)N[C@@H](CS)C(=O)N[C@H](C(=O)N[C@@H](CCCNC(=N)N)C(=O)N1CCC[C@H]1C(=O)N[C@@H](CO)C(=O)N[C@@H](CCCNC(=N)N)C(=O)N1CCC[C@H]1C(=O)N1CCC[C@H]1C(=O)N[C@@H](CCCNC(=N)N)C(=O)NCC(=O)N[C@@H](Cc1ccccc1)C(=O)O)C(C)C)[C@@H](C)CC)[C@@H](C)O)[C@@H](C)O)[C@@H](C)O | HaCaT | cell viability, MTT |  |  |  | CC50 | 92.7 µM
CC[C@H](C)[C@H](NC(=O)[C@H](C)NC(=O)[C@H](Cc1c[nH]cn1)NC(=O)CNC(=O)CNC(=O)CNC(=O)c1ccc2c(c1)C(=O)OC21c2ccc(O)cc2Oc2cc(O)ccc21)C(=O)N[C@@H](Cc1ccc(O)cc1)C(=O)N1CCC[C@H]1C(=O)N[C@@H](CCCNC(=N)N)C(=O)N[C@@H](Cc1c[nH]cn1)C(N)=O | hCMEC/D3 monolayers | BBB permeability, Transwell, refers to: CF-labelled compound | EGM-2 medium | concentration not given, 3 h, apical to basal | reference: fluorescence added apically | transport ratio | 12.9%
CC[C@H](C)[C@H](NC(=O)[C@H](Cc1ccccc1)NC(=O)[C@H](Cc1ccccc1)NC(=O)[C@@H](NC(=O)[C@@H](NC(=O)[C@H](CCCCN)NC(=O)[C@H](CCC(N)=O)NC(=O)[C@H](Cc1c[nH]cn1)NC(=O)[C@H](CO)NC(=O)[C@H](CO)NC(=O)[C@@H](NC(=O)[C@@H]1CCCN1C(=O)[C@H](C)NC(=O)[C@H](Cc1ccccc1)NC(=O)[C@H](CCCNC(=N)N)NC(=O)[C@H](CC(C)C)NC(=O)[C@H](Cc1ccccc1)NC(=O)[C@H](CCCCN)NC(=O)[C@H](C)NC(=O)CNC(=O)[C@H](CCCCN)NC(=O)[C@H](CCCNC(=N)N)NC(=O)[C@H](CCCCN)NC(=O)[C@@H](NC(=O)[C@H](Cc1ccccc1)NC(=O)[C@@H](NC(=O)[C@H](CC(=O)O)NC(=O)[C@@H](NC(=O)[C@@H](NC(=O)[C@@H](N)CCCCN)[C@@H](C)CC)[C@@H](C)O)C(C)C)C(C)C)C(C)C)C(C)C)[C@@H](C)O)C(=O)N[C@@H](Cc1c[nH]cn1)C(=O)O | HaCaT | cell viability, MTT |  |  |  | CC50 | 104 µM
COc1cc2c(OCCCC#N)c3c(c(-c4ccc5c(c4)OCO5)c2cc1OC)C(=O)OC3 | HEK293 |  | complete medium | concentration not given, 72 h | reference: diphyllin | cytotoxicity fold increase | 5 fold
CC(=O)OC[C@H]1O[C@@H](Oc2cc(O)cc3cc4oc(C)cc(=O)c4c(O)c23)[C@H](O)[C@@H](O)[C@@H]1O | HK-2 co-cultured with HepaRG | MTT |  | 66.67 µM, 48 h | reference: untreated control | cell viability | 91.1 ± 3.09%
Cc1cc(C(C)(C)c2ccc(O)c(C)c2)ccc1O | HepG2 spheroids, dissociated | annexin V-FITC/PI flow cytometry |  | 1 µM, 24 h |  | late apoptotic cells | 7.25 ± 1.57%
CCN(CC)CCCC[C@H](NC(=O)[C@H](CC(C)C)NC(=O)[C@H](C)NC(=O)[C@H](Cc1ccccc1)NC(=O)c1ccc(C(C)(C)C)cc1)C(=O)N[C@@H](CO)C(=O)OC | PC-3 | LC-MS/MS |  | 30 µM, 24 h |  | intracellular concentration | 1.36 µM
CC[C@H](C)[C@H](NC(=O)CN)C(=O)N[C@@H](CC(C)C)C(=O)N[C@@H](CC(=O)O)C(=O)N[C@@H](C)C(=O)N[C@H](C(=O)N[C@@H](CC(C)C)C(=O)N[C@@H](CC(=O)O)C(=O)N[C@@H](C)C(=O)N[C@H](C(=O)N[C@@H](CCCCN)C(=O)N[C@@H](C)C(=O)N[C@H](C(=O)N[C@@H](C)C(=O)N[C@@H](CCCCN)C(=O)N[C@@H](C)C(=O)N[C@H](C(=O)N[C@@H](CCCCN)C(=O)N[C@@H](C)C(=O)N[C@@H](CCCCN)C(=O)N[C@@H](C)C(=O)NCC(N)=O)[C@@H](C)CC)[C@@H](C)CC)[C@@H](C)CC)[C@@H](C)CC | HEK293 |  |  | 256 µM, 24 h |  | viability | 40%
CC[C@@H](C)[C@H]1O[C@@H](c2c(O)c(-c3ccccc3)cn(OC)c2=O)[C@H](C)C[C@@H]1C | KB | cytotoxicity, neutral red uptake |  | 48 h |  | IC50 | > 10 µg/mL
Cc1cccc(C)c1N(Cn1cccn1)C(=O)CCl | MCF7 AREc32 cells | cell confluency, IncuCyte imaging |  | 24 h, nominal concentration |  | IC10 | 254 µM
NCC(=O)Nc1ccc(-n2nc(C(F)(F)F)cc2-c2ccc3c(ccc4ccccc43)c2)cc1 | HEK-293T | MTT |  | 8 h |  | highest non-cytotoxic concentration | < 3 µM
O=c1ccc2ccccc2o1 | HepaRG 3D spheroids | cellular ATP |  | 24 h, high-content imaging |  | point of departure | 760 µM
Cc1cc2c(c(O)c1O)C(=O)c1c(O)cc(O)cc1C2=O | HK-2 co-cultured with HepaRG | MTT |  | 66.67 µM, 24 h | reference: untreated control | cell viability | 107 ± 13.2%
COc1cc(C=CC(=O)O)ccc1OC(C)=O | HaCaT | MTT |  | 24 h, 10% FBS |  | subcytotoxic concentration | 50 µM
Oc1ccc(C(c2ccc(O)cc2)(C(F)(F)F)C(F)(F)F)cc1 | HepG2 spheroids, dissociated | annexin V-FITC/PI flow cytometry |  | 0.01 µM, 96 h |  | early apoptotic cells | 4.41 ± 3.07%
CC(C)C[C@H](NC(=O)[C@@H](NC(=O)[C@H](CCCNC(=N)N)NC(=O)[C@H](CCC(N)=O)NC(=O)[C@H](Cc1ccccc1)NC(=O)[C@H](Cc1ccc(O)cc1)NC(=O)[C@H](CC(N)=O)NC(=O)[C@H](Cc1c[nH]c2ccccc12)NC(=O)[C@@H](NC(=O)[C@H](CCCNC(=N)N)NC(=O)[C@H](CCCCN)NC(=O)[C@@H](N)Cc1ccccc1)C(C)C)C(C)C)C(=O)N[C@H](C(=O)N[C@@H](CCCCN)C(=O)N[C@@H](CCCCN)C(N)=O)C(C)C | rat erythrocytes |  |  | 200 µM, 60 min, 37 °C |  | hemolysis | 2.5 ± 0.4%
CC(=O)c1c(O)c(C)c(O)c(Cc2c(O)c3c(c(C(=O)/C=C/c4ccccc4)c2O)OC(C)(C)C=C3)c1O | MRC-5, mock-infected | nuclei count |  | 96 h |  | LD50 | 20.3 µM
CN(N=O)[C@H]1CC[C@@H](c2ccc(Cl)c(Cl)c2)c2ccccc21 | TK6 expressing CYP2B6 |  |  | 0.01 µM, 4 h, without S9 | reference: vehicle | relative survival | 84.5%
C[C@H]1CN(c2n[nH]c3nc(N[C@H]4CC[C@H](NS(=O)(=O)CCC(F)(F)F)CC4)ncc23)CCO1 | Small ribosomal subunit protein uS3 (Homo sapiens, UniProt P23396) | biochemical |  |  |  | IC50 | ≥ 20 µM
O=C(O)C(F)(F)C(F)(F)C(F)(F)F | hTERT-RPTEC-OAT1 |  |  | concentration not given, Transwell, apical-to-basolateral addition |  | LDH release | 12.3 mU/mL and 13.1 mU/mL and 10.1 mU/mL and 11.5 mU/mL
Oc1ccc(C2(c3ccc(O)cc3)c3ccccc3-c3ccccc32)cc1 | HepG2 spheroids, dissociated | annexin V-FITC/PI flow cytometry |  | 10 µM, 24 h |  | early apoptotic cells | 14.2 ± 3.97%
CCCCCCCCCC(=O)N[C@@H](Cc1c[nH]c2ccccc12)C(=O)N[C@H](CC(N)=O)C(=O)N[C@@H](CC(=O)O)C(=O)N[C@@H]1C(=O)NCC(=O)N[C@@H](CCCNC(=O)CCC(=O)N2Cc3ccccc3-c3c(nnn3CCC[C@H](NC(=O)CCCCC[N+]3=C(C=CC4=CC(=CC=C5N(C)c6ccccc6C5(C)C)CCC4)C(C)(C)c4ccccc43)C(=O)NCCCCNC(=O)CCC(=O)N3Cc4ccccc4-c4c(nnn4CCOCCOCCOCCNC(=O)CN4CCN(CC(=O)NCCNC(=O)c5cccc(O)c5O)CCN(CC(=O)NCCNC(=O)c5cccc(O)c5O)CCN(CC(=O)NCCNC(=O)c5cccc(O)c5O)CC4)-c4ccccc43)-c3ccccc32)C(=O)N[C@@H](CC(=O)O)C(=O)N[C@H](C)C(=O)N[C@@H](CC(=O)O)C(=O)NCC(=O)N[C@H](CO)C(=O)N[C@@H]([C@H](C)CC(=O)O)C(=O)N[C@@H](CC(=O)c2ccccc2N)C(=O)O[C@@H]1C | L929 | cytotoxicity, WST-1 | mouse cells | 5 days, 5% FBS DMEM |  | EC50 | 64 µM

For quick reference, copied from above:
SMILES | target or system | assay | test system | conditions | scale | endpoint | value
CN(N=O)[C@H]1CC[C@@H](c2ccc(Cl)c(Cl)c2)c2ccccc21 | TK6 expressing CYP2B6 |  |  | 0.01 µM, 4 h, without S9 | reference: vehicle | relative survival | 84.5%
C[C@H]1CN(c2n[nH]c3nc(N[C@H]4CC[C@H](NS(=O)(=O)CCC(F)(F)F)CC4)ncc23)CCO1 | Small ribosomal subunit protein uS3 (Homo sapiens, UniProt P23396) | biochemical |  |  |  | IC50 | ≥ 20 µM
O=C(O)C(F)(F)C(F)(F)C(F)(F)F | hTERT-RPTEC-OAT1 |  |  | concentration not given, Transwell, apical-to-basolateral addition |  | LDH release | 12.3 mU/mL and 13.1 mU/mL and 10.1 mU/mL and 11.5 mU/mL
Oc1ccc(C2(c3ccc(O)cc3)c3ccccc3-c3ccccc32)cc1 | HepG2 spheroids, dissociated | annexin V-FITC/PI flow cytometry |  | 10 µM, 24 h |  | early apoptotic cells | 14.2 ± 3.97%
CCCCCCCCCC(=O)N[C@@H](Cc1c[nH]c2ccccc12)C(=O)N[C@H](CC(N)=O)C(=O)N[C@@H](CC(=O)O)C(=O)N[C@@H]1C(=O)NCC(=O)N[C@@H](CCCNC(=O)CCC(=O)N2Cc3ccccc3-c3c(nnn3CCC[C@H](NC(=O)CCCCC[N+]3=C(C=CC4=CC(=CC=C5N(C)c6ccccc6C5(C)C)CCC4)C(C)(C)c4ccccc43)C(=O)NCCCCNC(=O)CCC(=O)N3Cc4ccccc4-c4c(nnn4CCOCCOCCOCCNC(=O)CN4CCN(CC(=O)NCCNC(=O)c5cccc(O)c5O)CCN(CC(=O)NCCNC(=O)c5cccc(O)c5O)CCN(CC(=O)NCCNC(=O)c5cccc(O)c5O)CC4)-c4ccccc43)-c3ccccc32)C(=O)N[C@@H](CC(=O)O)C(=O)N[C@H](C)C(=O)N[C@@H](CC(=O)O)C(=O)NCC(=O)N[C@H](CO)C(=O)N[C@@H]([C@H](C)CC(=O)O)C(=O)N[C@@H](CC(=O)c2ccccc2N)C(=O)O[C@@H]1C | L929 | cytotoxicity, WST-1 | mouse cells | 5 days, 5% FBS DMEM |  | EC50 | 64 µM
